Experimental data from different studies.
± gives the spread as reported.
Technique: steady-state kinetics
B1: mleA (Oenococcus oeni, UniProt Q48796); chain MTDPVSILNDPFINKGTAFTEAEREELGLNGLLPAKVQALQEQVDQTYAQFQSKVSNLEKRLFLMEIFNTNHVLFYKLFSQHVVEFMPIVYDPTIADTIENYSELFVEPQGAAFLDINHPENIQSTLKNAANGRDIKLLVVSDAEGILGIGDWGVQGVDIAVGKLMVYTVAAGIDPSTVLAVVIDAGTNNEKLLKDPMYLGNKFNRVRGDKYYDFIDKFVNHAESLFPNLYLHWEDFGRSNASNILNSYKDKIATFNDDIQGTGIVVLAGVLGALKISGQKLTDQTYMSFGAGTAGMGIVKQLHEEMVEQGLSDEEAKKHFFLVDKQGLLFDDDPDLTPEQKPFAAKRSDFKNANQLTNLQAAVEAVHPTILVGTSTHPNSFTEEIVKDMSGYTERPIIFPISNPTKLAEAKAEDVLKWSNGKALIGTGVPVDDIEYEGNAYQIGQANNALIYPGLGFGAIAAQSKLLTPEMISAAAHSLGGIVDTTKVGAAVLPPVSKLADFSRTVAVAVAKKAVEQGLNRQPIDDVEKAVDDLKWDPKY
B2: carbamoyl phosphate synthetase large subunit A23F (Escherichia coli, UniProt P00968); chain PKRTDIKSILILGAGPIVIGQFCEFDYSGAQACKALREEGYRVILVNSNPATIMTDPEMADATYIEPIHWEVVRKIIEKERPDAVLPTMGGQTALNCALELERQGVLEEFGVTMIGATADAIDKAEDRRRFDVAMKKIGLETARSGIAHTMEEALAVAADVGFPCIIRPSFTMGGSGGGIAYNREEFEEICARGLDLSPTKELLIDESLIGWKEYEMEVVRDKNDNCIIVCSIENFDAMGIHTGDSITVAPAQTLTDKEYQIMRNASMAVLREIGVETGGSNVQFAVNPKNGRLIVIEMNPRVSRSSALASKATGFPIAKVAAKLAVGYTLDELMNDITGGRTPASFEPSIDYVVTKIPRFNFEKFAGANDRLTTQMKSVGEVMAIGRTQQESLQKALRGLEVGATGFDPKVSLDDPEALTKIRRELKDAGADRIWYIADAFRAGLSVDGVFNLTNIDRWFLVQIEELVRLEEKVAEVGITGLNADFLRQLKRKGFADARLAKLAGVREAEIRKLRDQYDLHPVYKRVDTCAAEFATDTAYMYSTYEEECEANPSTDREKIMVLGGGPNRIGQGIEFDYCCVHASLALREDGYETIMVNCNPETVSTDYDTSDRLYFEPVTLEDVLEIVRIEKPKGVIVQYGGQTPLKLARALEAAGVPVIGTSPDAIDRAEDRERFQHAVERLKLKQPANATVTAIEMAVEKAKEIGYPLVVRPSYVLGGRAMEIVYDEADLRRYFQTAVSVSNDAPVLLDHFLDDAVEVDVDAICDGEMVLIGGIMEHIEQAGVHSGDSACSLPAYTLSQEIQDVMRQQVQKLAFELQVRGLMNVQFAVKNNEVYLIEVNPRAARTVPFVSKATGVPLAKVAARVMAGKSLAEQGVTKEVIPPYYSVKEVVLPFNKFPGVDPLLGPEMRSTGEVMGVGRTFAEAFAKAQLGSNSTMKKHGRALLSVREGDKERVVDLAAKLLKQGFELDATHGTAIVLGEAGINPRLVNKVHEGRPHIQDRIKNGEYTYIINTTSGRRAIEDSRVIRRSALQYKVHYDTTLNGGFATAMALNADATEKVISVQEMHAQIK
B3: tsaM1 F253S/H255G/M230N/R216A/S234V/S257H (Comamonas testosteroni, UniProt P94679); chain MFIRNCWYVAAWDTEIPAEGLFHRTLLNEPVLLYRDTQGRVVALENRCCHRSAPLHIGRQEGDCVRCLYHGLKFNPSGACVEIPGQEQIPPKTCIKSYPVVERNRLVWIWMGDPARANPDDIVDYFWHDSPEWRMKPGYIHYQANYKLIVDNLLDFTHLAWVHPTTLGTDSAASLKPVIERDTTGTGKLTITRWYLNDDMSNLHKGVAKFEGKADAWQIYQWSPPALLRNDTGVAPTGTGAPEGRRVPEAVQSRGTHIQTPETETTSHYWFCQARNFDLDDEALTEKIYQGVVVAFEEDRTMIEAHEKILSQVPDRPMVPIAADAGLNQGRWLLDRLLKAENGGTAP
B4: asnB E349D (Escherichia coli, UniProt P22106); chain CSIFGVFDIKTDAVELRKKALELSRLMRHRGPDWSGIYASDNAILAHERLSIVDVNAGAQPLYNQQKTHVLAVNGEIYNHQALRAEYGDRYQFQTGSDCEVILALYQEKGPEFLDDLQGMFAFALYDSEKDAYLIGRDHLGIIPLYMGYDEHGQLYVASEMKALVPVCRTIKEFPAGSYLWSQDGEIRSYYHRDWFDYDAVKDNVTDKNELRQALEDSVKSHLMSDVPYGVLLSGGLDSSIISAITKKYAARRVEDQERSEAWWPQLHSFAVGLPGSPDLKAAQEVANHLGTVHHEIHFTVQEGLDAIRDVIYHIETYDVTTIRASTPMYLMSRKIKAMGIKMVLSGDGSDEVFGGYLYFHKAPNAKELHEETVRKLLALHMYDCARANKAMSAWGVEARVPFLDKKFLDVAMRINPQDKMCGNGKMEKHILRECFEAYLPASVAWRQKEQFSDGVGYSWIDTLKEVAAQQVSDQQLETARFRFPYNTPTSKEAYLYREIFEELFPLPSAAECVPGGPSVACSSAKAIEWDEAFKKMDDPSGRAVGVHQSAYK
B5: enzyme A178R/D177A/M179S/P184R (Levilactobacillus brevis, UniProt Q03Q85); chain MKVTVVGCTHAGTFAIKQILAEHPDAEVTVYERNDVISFLSCGIALYLGGKVADPQGLFYSSPEELQKLGANVQMNHNVLAIDPDQKTVTVEDLTNHAQTTESYDKLVMTSGSWPIVPKIPGIDSDRVKLCKNWAHAQALIEDAKEAKRITVIGAGYIGAELAEAYSTTGHDVTLIARSARVMRKYFDADFTDVIEQDYRDHGVQLALGETVESFTDSATGLTIKTDKNSYETDLAILCIGFRPNTDLLKGKVDMAPNGAIITDDYMRSSNPDIFAAGDSAAVHYNPTHQNAYIPLATNAVRQGILVGKNLVKPTVKYMGTQSSSGLALYDRTIVSTGLTLAAAKQQGLNAEQVIVEDNYRPEFMPSTEPVLMSLVFDPDTHRILGGALMSKYDVSQSANTLSVCIQNENTIDDLAMVDMLFQPNFDRPFNYLNILAQAAQAKVAQSVNA
B6: YdjH (Escherichia coli, UniProt P77493); chain MDNLDVICIGAAIVDIPLQPVSKNIFDVDSYPLERIAMTTGGDAINEATIISRLGHRTALMSRIGKDAAGQFILDHCRKENIDIQSLKQDVSIDTSINVGLVTEDGERTFVTNRNGSLWKLNIDDVDFARFSQAKLLSLASIFNSPLLDGKALTEIFTQAKARQMIICADMIKPRLNETLDDICEALSYVDYLFPNFAEAKLLTGKETLDEIADCFLACGVKTVVIKTGKDGCFIKRGDMTMKVPAVAGITAIDTIGAGDNFASGFIAALLEGKNLRECARFANATAAISVLSVGATTGVKNRKLVEQLLEEYEG
B7: protein (Rheum palmatum, UniProt A0A7L9A2S6); chain MKKTELVFLPAPAPGHLVSTVEFSKRLIARDARLTVTILVISSPFSRGAQTNPSPGIRYVTLPQVDVPQHLMKDSIEHTISVYIASHAPHVRDAVAALQTESTVHVAGLFLDMFCTPMIDVANELGLPSYVFFCSSAGFLGLLLHLPVHSQPRFDETGLDVLIPSFQNPVPTRVLPRFGFNELGYKSFMDHAKRFGETKGIIINTYAELEPYALKSLLDAYDTAPVYAVGPVLDLRSQVHMPCDAAERARIMGWLDKQPDSSVVFLCFGSGGSFSEHQIREISKGLSQSGQRFLWSVRKPPTGGLVKPTEYTETELRSVLGDEFWSLLDEGERGVVCGWAPQVEVLGHKSVGAFVSHCGWNSTLESLWFGKPMVTWPLYAEQQMNAFELVKELGIAVELTLDYRLHSSEVVEAREVERAVRRVMDENNPVRYKVKEMAEVCRATLVEGGSSFVCVDRLISGFLGEIN
B8: PduO (Limosilactobacillus reuteri, UniProt Q50EJ2); chain MKIYTKNGDKGQTRIIGKQILYKNDPRVAAYGEVDELNSWVGYTKSLINSHTQVLSNELEEIQQLLFDCGHDLATPADDERHSFKFKQEQPTVWLEEKIDNYTQVVPAVKKFILPGGTQLASALHVARTITRRAERQIVQLMREEQINQDVLIFINRLSDYFFAAARYANYLEQQPDMLYRNSKDVFR

Molecule | substrate | setting | kcat
B1 (mleA) | O=C(O)C[C@H](O)C(=O)O | pH 6, 45 °C | 234 ± 7.33 s⁻¹
enzyme (Staphylococcus aureus, UniProt P69848) | Nc1nc2c(ncn2[C@@H]2O[C@H](COP(=O)(O)OP(=O)(O)OP(=O)(O)O)[C@@H](O)[C@H]2O)c(=O)[nH]1 | pH 7.6, 25 °C | 0.0007 ± 8.33e-05 s⁻¹
MMP2 (Homo sapiens, UniProt P08253) | CSCC[C@H](NC(=O)CNC(=O)[C@H](CC(C)C)NC(=O)[C@@H]1CCCN1C(=O)CNC(C)=O)C(=O)N[C@@H](Cc1c[nH]cn1)C(=O)NCC(=O)N[C@@H](CCCCN)C(N)=O |  | 620 s⁻¹
B2 | Nc1ncnc2c1ncn2[C@@H]1O[C@H](COP(=O)(O)OP(=O)(O)OP(=O)(O)O)[C@@H](O)[C@H]1O | pH 7.6, KCl 100 mM, together with: glutamine 10 mM, ornithine 10 mM | 1.3 ± 0.07 s⁻¹
B3 | COc1cc(C(=O)O)ccc1O | apparent, together with: NADH 1 mM | 0.0633 ± 0.00333 s⁻¹
ALDH7A1 (Homo sapiens, UniProt P49419) | N[C@@H](CCCC=O)C(=O)O | pH 8, 26 °C, together with: NAD+ 2.5 mM | 0.3 ± 0.01 s⁻¹
enzyme (Actinoalloteichus caeruleus, UniProt M1F4W9) | CSc1c(O)cc(-c2ccccn2)nc1C(=O)N[C@@H](CC(C)C)C(=O)O | pH 8, 30 °C | 0.393 ± 0.0208 s⁻¹
B4 (asnB E349D) | N[C@@H](CC(=O)O)C(=O)O | pH 8, 37 °C, apparent, together with: L-glutamine 20 mM | 0.45 ± 0.01 s⁻¹
ALDH7A1 (Homo sapiens, UniProt P49419) | N[C@@H](CCCC=O)C(=O)O | pH 8, 20 °C, together with: NAD+ 2.5 mM | 2.18 ± 0.095 s⁻¹
Ptb (Listeria monocytogenes, UniProt Q8Y7B7) | CCCCC(=O)SCCNC(=O)CCNC(=O)[C@H](O)C(C)(C)COP(=O)(O)OP(=O)(O)OC[C@H]1O[C@@H](n2cnc3c(N)ncnc32)[C@H](O)[C@@H]1OP(=O)(O)O | pH 7.5, 25 °C, apparent | 676 ± 19 s⁻¹
B5 (enzyme A178R/D177A/M179S/P184R) | NC(=O)C1=CN([C@@H]2O[C@H](COP(=O)(O)OP(=O)(O)OC[C@H]3O[C@@H](n4cnc5c(N)ncnc54)[C@H](OP(=O)(O)O)[C@@H]3O)[C@@H](O)[C@H]2O)C=CC1 | pH 7.5, 37 °C, per site | 76 ± 12 s⁻¹
BaiA2 (Clostridium scindens, UniProt P19337) | C[C@H](CCC(=O)SCCNC(=O)CCNC(=O)[C@H](O)C(C)(C)COP(=O)(O)OP(=O)(O)OC[C@H]1O[C@@H](n2cnc3c(N)ncnc32)[C@H](O)[C@@H]1OP(=O)(O)O)[C@H]1CC[C@H]2[C@@H]3CC[C@@H]4C[C@H](O)CC[C@]4(C)[C@H]3CC[C@]12C | pH 8.7, 37 °C, together with: NAD+ | 0.183 s⁻¹
enzyme (Agrobacterium fabrum, UniProt Q7CU96) | O=C(O)C(=O)C[C@@H](O)[C@H](O)C(=O)O | pH 7.9 | 1.6 ± 0.1 s⁻¹
B6 (YdjH) | OC[C@H]1O[C@H](CO)[C@@H](O)[C@@H]1O | pH 7.4, 30 °C, KCl 100 mM, together with: ATP 2.0 mM, MgCl2 5.0 mM | 0.06 ± 0.01 s⁻¹
alanine aminopeptidase (Neisseria meningitidis, UniProt Q9JYV4) | N=C(N)NCCC[C@H](N)C(=O)Nc1ccc2c(CC(N)=O)cc(=O)oc2c1 | pH 7.5, 37 °C | 13.1 ± 0.6 s⁻¹
B7 (protein) | O=c1c(O)c(-c2ccc(O)cc2)oc2cc(O)cc(O)c12 | pH 7.5, 35 °C, apparent, together with: UDP-glucose | 0.00538 ± 0.00042 s⁻¹
B8 (PduO) | Nc1ncnc2c1ncn2[C@@H]1O[C@H](COP(=O)(O)OP(=O)(O)OP(=O)(O)O)[C@@H](O)[C@H]1O | pH 8, 37 °C, anoxic, together with: cob(I)alamin | 0.026 ± 0.001 s⁻¹

A few entries again:
Molecule | substrate | setting | kcat
ALDH7A1 (Homo sapiens, UniProt P49419) | N[C@@H](CCCC=O)C(=O)O | pH 8, 26 °C, together with: NAD+ 2.5 mM | 0.3 ± 0.01 s⁻¹
enzyme (Actinoalloteichus caeruleus, UniProt M1F4W9) | CSc1c(O)cc(-c2ccccn2)nc1C(=O)N[C@@H](CC(C)C)C(=O)O | pH 8, 30 °C | 0.393 ± 0.0208 s⁻¹
B4 (asnB E349D) | N[C@@H](CC(=O)O)C(=O)O | pH 8, 37 °C, apparent, together with: L-glutamine 20 mM | 0.45 ± 0.01 s⁻¹
